Published values from different studies.
Compare with care: the assays were run in different laboratories. “And” joins repeats or separate records; there may be more than shown. ± gives the spread as reported.
IGHG1: Immunoglobulin heavy constant gamma 1 (IGHG1, Homo sapiens, UniProt P01857)
Chain of UniProt P05181 (whole entry, looked up): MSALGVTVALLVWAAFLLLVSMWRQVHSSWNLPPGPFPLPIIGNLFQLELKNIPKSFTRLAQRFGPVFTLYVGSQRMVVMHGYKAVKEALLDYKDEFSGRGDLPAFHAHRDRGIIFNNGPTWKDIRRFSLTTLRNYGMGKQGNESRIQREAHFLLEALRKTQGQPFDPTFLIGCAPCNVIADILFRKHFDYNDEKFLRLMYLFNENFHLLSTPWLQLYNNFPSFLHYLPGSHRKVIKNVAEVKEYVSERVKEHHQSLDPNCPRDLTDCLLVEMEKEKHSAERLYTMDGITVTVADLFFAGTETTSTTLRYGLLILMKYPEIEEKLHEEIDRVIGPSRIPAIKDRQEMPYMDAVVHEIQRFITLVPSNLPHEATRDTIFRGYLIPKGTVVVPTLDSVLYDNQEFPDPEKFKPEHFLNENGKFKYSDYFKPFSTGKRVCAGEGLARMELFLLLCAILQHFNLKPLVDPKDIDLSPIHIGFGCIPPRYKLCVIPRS
Chain of UniProt P05177 (whole entry, looked up): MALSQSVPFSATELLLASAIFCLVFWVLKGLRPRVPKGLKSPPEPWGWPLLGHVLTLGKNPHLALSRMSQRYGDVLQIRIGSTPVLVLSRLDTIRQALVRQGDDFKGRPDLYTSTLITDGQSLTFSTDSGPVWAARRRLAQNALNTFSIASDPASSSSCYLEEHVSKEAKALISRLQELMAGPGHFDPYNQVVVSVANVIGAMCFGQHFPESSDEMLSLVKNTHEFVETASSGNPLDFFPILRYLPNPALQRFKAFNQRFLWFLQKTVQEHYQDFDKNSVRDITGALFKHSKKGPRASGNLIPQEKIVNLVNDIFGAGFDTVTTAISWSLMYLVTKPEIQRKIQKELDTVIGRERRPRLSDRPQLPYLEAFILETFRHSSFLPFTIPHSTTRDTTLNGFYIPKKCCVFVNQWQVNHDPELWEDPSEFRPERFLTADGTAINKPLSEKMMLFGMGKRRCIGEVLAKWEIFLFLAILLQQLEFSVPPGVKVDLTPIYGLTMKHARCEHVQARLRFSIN
Chain of UniProt P41145 (whole entry, looked up): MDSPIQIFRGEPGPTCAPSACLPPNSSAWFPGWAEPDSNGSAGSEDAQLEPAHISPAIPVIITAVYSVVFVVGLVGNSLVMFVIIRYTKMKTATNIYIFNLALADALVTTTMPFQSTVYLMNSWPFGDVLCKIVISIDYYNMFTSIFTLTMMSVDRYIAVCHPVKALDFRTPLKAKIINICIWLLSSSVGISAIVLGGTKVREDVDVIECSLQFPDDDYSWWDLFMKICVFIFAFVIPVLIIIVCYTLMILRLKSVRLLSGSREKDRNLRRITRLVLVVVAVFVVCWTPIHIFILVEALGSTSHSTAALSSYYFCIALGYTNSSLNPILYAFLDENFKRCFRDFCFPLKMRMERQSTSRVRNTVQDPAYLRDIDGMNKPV

`COc1cc2c(c(OC)c1OC)-c1ccc(OC)c(=O)cc1[C@@H](NC(C)=O)CC2` has a chromatographic logD of 2.17 (pH 7.4).
For `O=c1cc(-c2ccccc2)oc2c1ccc1ccccc12`, the remaining activity was 25.2% (Cytochrome P450 1A2 (CYP1A2, Homo sapiens, UniProt P05177); enzyme activity, inhibitor; pooled human liver microsomes; concentration not given).
The CC50 of `COc1ccc(C[C@H]2NC[C@H](O)[C@H]2OC(C)=O)cc1` is reported as 58.5 µM (LMH chicken hepatoma cells; cytotoxicity).
`CC(=O)NCC(=O)N1CCC[C@H]1C(=O)N[C@@H](CC(=O)O)C(=O)N[C@H]1CSSC[C@@H](C(=O)N[C@H](C(=O)N[C@@H](Cc2ccccc2)C(N)=O)[C@@H](C)O)NC(=O)[C@H](Cc2c[nH]c3ccccc23)NC(=O)[C@H](C(C)C)NC(=O)[C@H](CC(C)C)NC(=O)[C@H](CCC(=O)O)NC(=O)CNC(=O)[C@H](CCCCN)NC(=O)[C@H](Cc2c[nH]cn2)NC(=O)[C@H](Cc2ccc(O)cc2)NC(=O)[C@H](C)NC1=O` has a Kd of 703 ± 4 nM (IGHG1; binding, SPR; pH 7.4, added: immobilized Herceptin).
`CNCCCN1c2ccccc2CCc2ccccc21` gave a Kd of 149000 nM (alpha1-acid glycoprotein (human); binding, isothermal titration calorimetry; pH 7.4, 30 °C).
The Emax of `Oc1ccc2c3c1O[C@H]1c4[nH]c5c(c4C[C@@]4(O)[C@@H](C2)N(CC2CC2)CC[C@]314)C[C@@]1(O)[C@H]2Cc3ccc(O)c4c3[C@@]1(CCN2CC1CC1)[C@H]5O4` is reported as 25.2 ± 7.07% (OPRK1 (Homo sapiens, UniProt P41145); added: 140 mM sodium).
For `CCO`, the inhibition was 40% and > 80% (Cytochrome P450 2E1 (CYP2E1, Homo sapiens, UniProt P05181); concentration not given).
`CC[C@H](C)[C@H](NC(=O)[C@H](CCCCN)NC(=O)[C@H](CCC(N)=O)NC(=O)[C@H](Cc1ccccc1)NC(=O)[C@@H](NC(=O)[C@H](CCCCN)NC(=O)[C@H](CCCCN)NC(=O)[C@H](CC(C)C)NC(=O)[C@H](C)NC(=O)[C@H](CC(N)=O)NC(=O)[C@@H](N)CC(C)C)C(C)C)C(=O)N[C@@H](Cc1c[nH]cn1)C(=O)N[C@@H](CCC(=O)O)C(=O)N[C@@H](C)C(N)=O` has an HC10 of 256 µM (mouse erythrocytes).
`CCCC[C@H]1NC(=O)[C@H](Cc2ccc(F)cc2)NC(=O)[C@H](CCCNC(=N)N)NC(=O)[C@@H](Cc2ccc3ccccc3c2)NC(=O)[C@H](CCCNC(=N)N)NC(=O)[C@H](CCCNC(=N)N)NC(=O)[C@H](CCC(N)=O)NC(=O)C[C@@H](CCc2ccccc2)NC(=O)[C@@H]2CCCCN2C(=O)C(=O)C(C)(C)COC1=O`: binding “no binding” (PTP1B; fluorescence polarization; up to 20 µM).
`CC(C)C[C@H](NC(=O)[C@@H](NC(=O)[C@H](C)NC(=O)[C@@H](NC(=O)[C@@H](NC(=O)[C@H](CC(N)=O)NC(=O)[C@H](Cc1ccc(O)cc1)NC(=O)[C@H](CC(C)C)NC(=O)[C@@H](N)CO)[C@@H](C)O)C(C)C)[C@@H](C)O)C(=O)O` gave a half-life of 33.9 min (RP-HPLC; human PBMC cytosol; 37 °C, DMSO control condition).
With `CC(=O)NCC(=O)N1CCC[C@H]1C(=O)N[C@@H](CC(=O)O)C(=O)N[C@H]1CSSC[C@@H](C(=O)N[C@H](C(N)=O)[C@@H](C)O)NC(=O)[C@H](Cc2c[nH]c3ccccc23)NC(=O)[C@H](C(C)C)NC(=O)[C@H](CC(C)C)NC(=O)[C@H](CCC(=O)O)NC(=O)CNC(=O)[C@H](CCCCN)NC(=O)[C@H](Cc2c[nH]cn2)NC(=O)[C@H](Cc2ccc(O)cc2)NC(=O)[C@H](C)NC1=O` the Kd was 1640 ± 10 nM (IGHG1; binding, SPR; pH 7.4, added: immobilized Herceptin).
The recovery of `CN1C(=O)N[C@H]2[C@@H]3NC(=O)c4ccc(Br)n4[C@@H]3C[C@]21O` is reported as 65 to 90% (LC-MS; human AB serum; 50 µM, 24 h, 37 °C).

Some of these lines once more:
The Emax of `Oc1ccc2c3c1O[C@H]1c4[nH]c5c(c4C[C@@]4(O)[C@@H](C2)N(CC2CC2)CC[C@]314)C[C@@]1(O)[C@H]2Cc3ccc(O)c4c3[C@@]1(CCN2CC1CC1)[C@H]5O4` is reported as 25.2 ± 7.07% (OPRK1 (Homo sapiens, UniProt P41145); added: 140 mM sodium).
`CCCC[C@H]1NC(=O)[C@H](Cc2ccc(F)cc2)NC(=O)[C@H](CCCNC(=N)N)NC(=O)[C@@H](Cc2ccc3ccccc3c2)NC(=O)[C@H](CCCNC(=N)N)NC(=O)[C@H](CCCNC(=N)N)NC(=O)[C@H](CCC(N)=O)NC(=O)C[C@@H](CCc2ccccc2)NC(=O)[C@@H]2CCCCN2C(=O)C(=O)C(C)(C)COC1=O`: binding “no binding” (PTP1B; fluorescence polarization; up to 20 µM).
